# Results of several laboratories.
# Numbered parts are unrelated; each lists some results of a single study.

# Set 1
# Target: Ras GTPase-activating protein-binding protein 1, C-terminal RGG region (G3BP1, Homo sapiens, UniProt Q13283)
# Sequence of UniProt Q13283 (whole entry, looked up): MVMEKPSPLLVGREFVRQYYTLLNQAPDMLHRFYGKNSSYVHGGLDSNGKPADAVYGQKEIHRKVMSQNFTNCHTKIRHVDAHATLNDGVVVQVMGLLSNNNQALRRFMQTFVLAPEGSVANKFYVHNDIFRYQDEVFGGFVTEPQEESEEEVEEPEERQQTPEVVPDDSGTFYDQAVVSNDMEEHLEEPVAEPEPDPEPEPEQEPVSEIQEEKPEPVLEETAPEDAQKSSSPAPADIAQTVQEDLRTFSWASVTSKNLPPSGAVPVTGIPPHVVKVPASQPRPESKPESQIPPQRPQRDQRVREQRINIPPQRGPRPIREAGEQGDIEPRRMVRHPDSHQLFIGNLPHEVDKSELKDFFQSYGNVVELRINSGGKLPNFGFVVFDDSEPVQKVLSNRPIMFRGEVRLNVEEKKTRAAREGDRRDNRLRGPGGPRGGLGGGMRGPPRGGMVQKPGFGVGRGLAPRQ
# Method: RNA Bind-n-Seq
# Molecule type: RNA
# Sample: in vitro
# Concentration: 1 µM
# Setting: whole 134-nt RNA, ends assumed
# Added: 150 mM KCl
# Baseline: input library
# Direction: higher = stronger binding
# Constant ends, left off below: GGGAGUUCUACAGUCCGACGAUC … UGGAAUUCUCGGGUGUCAAGG
Strand,log2 enrichment
CCUGUGCUACACAUCGUAUGUACCGAAUCGGGGAGGGGUUUUUUUGGGGUUUUUUUGGGGAAAGUAUUAUGUUACGCCGUUCGGAUCUGC,0.0662
CAAGUCCUGUGCUACACAUCGUAUGUACCGAAUCGGUUUUUGGAAAAAGGUUUGGAAAGUAUUAUGUUACGCCGUUCGGAUCUGCACUUC,-2.16
GCAGGAAGUAAAAACAAAUGGAAAUGCUUCGGAUAGUGGCAGGGGUGGGGGUUGCUAAGGAAAGGGUGGGAUGGGAGUGGGUAAUGAGUU,1.02
GCAGGAAGUAAAAACAAAUGGAAAUGCUUCGGAUAGUGGCAGGGGUGGCGGUUGCUAAGGAAAGGGUGGGAUGGGAGUGGGUAAAGAGUU,1.53
CCUGUGCUACACAUCGUAUGUACCGAAUCGGAAAAAAAGGAAAAAAAGGAAAAAAAGGGGAAAGUAUUAUGUUACGCCGUUCGGAUCUGC,-1.89
UCAAGUCCUGUGCUACACAUCGUAUGUACCGAAUCGGGAAGGGAAGGGGAAGGGAAAGUAUUAUGUUACGCCGUUCGGAUCUGCACUUCC,2.54
AGUCCUGUGCUACACAUCGUAUGUACCGAAUCGGGUUUUGGUUUUGGGGUUUUGGGGAAAGUAUUAUGUUACGCCGUUCGGAUCUGCACU,-0.436
UUACGAUUAUAUCACCCGGACACACAUCAUGCUUAAGAUUCAACUGGGAGCAUACCAGGGAUGCUCUCUAACGUAAUCAAGGGAAGGUUC,-1.9
UAACUUUAGAGGAGGAUCGGAUGGAUAUGGCAGUGGACGUGGAUUUGGGGAUGGCUAUAAUGGGUAUGGAGGAGGACCUGGAGGUGGCAA,-1.26
CAAGUCCUGUGCUACACAUCGUAUGUACCGAAUCGGCCCCGGCCCCGGCCCCGGGAAAGUAUUAUGUUACGCCGUUCGGAUCUGCACUUC,-2.15

# Set 2
# Target: PABPC1L2, full length, GST fusion (mouse, UniProt A0ABA7IW68)
# Method: RNAcompete
# Molecule type: RNA
# Sample: in vitro
# Concentration: 20 nM
# Setting: 7-mer, probes averaged, single round
# Baseline: mean of 7-mers
# Direction: higher = stronger binding
# Residues (chain): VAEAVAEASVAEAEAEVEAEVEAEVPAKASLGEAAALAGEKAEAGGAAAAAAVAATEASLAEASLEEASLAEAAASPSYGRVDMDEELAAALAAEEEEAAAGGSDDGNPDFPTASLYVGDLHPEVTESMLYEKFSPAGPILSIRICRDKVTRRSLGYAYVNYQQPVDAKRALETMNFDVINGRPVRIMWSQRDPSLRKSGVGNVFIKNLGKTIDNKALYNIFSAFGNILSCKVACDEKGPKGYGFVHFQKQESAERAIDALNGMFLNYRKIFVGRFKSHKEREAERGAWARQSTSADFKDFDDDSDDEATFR
Strand,7-mer Z-score
AUCCCUG,-0.38
CCAGUCG,-0.365
CCCUCUC,-0.456
UUGUAUU,-0.193
AGCGGCG,0.131
UACAGGU,-0.0554
AUAGGCU,0.00436
UCUUGAA,-0.168
GUUCCUU,-0.115
GACUGAG,-0.0319
CCGUUUG,-0.559
GUUUGGC,-0.345
ACACCCA,-0.233
AGGGAAA,0.91
GAUUUCA,-0.215
UGCUGUU,-0.458
CAUCUCC,-0.407
GGUGGAC,0.347
CAUCUCG,-0.349
UUGGGGA,0.149
GAUUGGA,-0.0736
CUCCCGA,-0.248
CGAACAU,-0.18

# Set 3
# Target: Prothrombin, mature alpha-thrombin (F2, Homo sapiens, UniProt P00734)
# Method: aptamer microarray, sandwich
# Molecule type: DNA with 2'F-ANA
# Sample: in vitro
# Concentration: 200 nM
# Setting: whole 15-mer aptamer, many near background
# Added: Cy3 exosite-II aptamer, 400 nM
# Direction: higher = stronger binding
# Strand: GGTTGGTGTGGTTGG
Modification,mean fluorescence intensity [a.u.]
2'F-ANA at 1 2 4 6 11 13 14 15,110
2'F-ANA at 2 4 5 8 9 10 12 13,46.5
2'F-ANA at 2 3 4 6 7 9 11 12 13 14,197
2'F-ANA at 1 3 4 7 8 9 10 12 13 15,165
2'F-ANA at 2 4 9 11 12 13,338
2'F-ANA at 1 2 4 5 9 11 13 14,44.3
2'F-ANA at 1 2 6 7 8 9 11 15,154
2'F-ANA at 2 4 5 7 8 10 11 13 14 15,48.2
2'F-ANA at 1 2 3 5 8 11 15,57.7
2'F-ANA at 1 3 7 11 15,275
2'F-ANA at 1 3 4 5 10 12 13 14,47.7
2'F-ANA at 2 3 5 7 8 9 10 12 14 15,75.7
2'F-ANA at 2 3 4 5 6 8 9 11 14 15,52.9
2'F-ANA at 1 2 4 5 8 12 13 15,78.7
2'F-ANA at 3 4 6 7 8 10 11 15,214
2'F-ANA at 2 4 5 7 9 11 13 15,52.9
2'F-ANA at 4 5 6 7 8 13 15,55.1
2'F-ANA at 3 7 8 13,1140
2'F-ANA at 6 9,414
2'F-ANA at 1 2 4 5 6 10 11 12 14 15,283
2'F-ANA at 1 4 6 7 8 9 11 12,227
2'F-ANA at 2 6 7 9 12 13 15,449
2'F-ANA at 1 2 6 7 9 11 12,206
2'F-ANA at 1 4 7 13 15,90.3
2'F-ANA at 2 5 9 12 13 14,44.7

# Set 4
# Target: Interferon regulatory factor 5, full length, phosphomimetic (IRF5, Homo sapiens, UniProt Q13568-2, residues 1-514, S451D/S453D/S456D/S462D)
# Method: protein-binding microarray
# Molecule type: double-stranded DNA, one strand shown
# Sample: in vitro
# Concentration: 940 nM top
# Setting: 60-bp whole probe
# Added: salmon DNA 0.4 mg/ml
# Baseline: random background probes
# Direction: higher = stronger binding
# Constant ends, left off below: GCCTAGCAC … GTCTTGATTCGCTTGACGCTGCTG
Strand,fitted relative affinity
GACGAACTGAGTGTCGAGACGTGCTAG,-0.636 z-score
TAAGAACTGGGGTATCGATTAGTGCTA,2.83 z-score
GACGATTCCAGTTTCGAGACGTGCTAG,4.69 z-score
TTAGGTCTCGGTATCGGTTTGTGCTAG,7.14 z-score
TTAGGTATCGTCACTGGGTTAGTGCTA,2.99 z-score
TTAGATTTCAGACTGGCTTAGTGCTAG,-0.196 z-score
TGGGGCTGTATCATCTGAAGGTGCTAG,0.15 z-score
GACGGACTGCTTATCCCGACGTGCTAG,-0.23 z-score
TTAGGTTTCCTATTGCTTTAGTGCTAG,1.43 z-score
GACGGTCTCCTTTTCCTCACGTGCTAG,0.588 z-score
TCACACACCATTCTCGGACTGTGCTAG,1.1 z-score
GACGGTTTCGAAACTGGGGACGTGCTA,7.43 z-score
TCAGATTTCTTCCCTGTGACTGTGCTA,1.02 z-score
GAGGGTCTCGGTTTCGGGACGTGCTAG,5.34 z-score
GATGGTTTCGGGTATCGGGACGTGCTA,10.7 z-score
TTAGGTATCGACGTTCGGTTAGTGCTA,5.03 z-score
GACGGACTGGGGTTTCGGAACGTGCTA,2.29 z-score

# Repeated from above (set 4):
Strand,fitted relative affinity
TTAGATTTCAGACTGGCTTAGTGCTAG,-0.196 z-score
TGGGGCTGTATCATCTGAAGGTGCTAG,0.15 z-score
GACGGACTGCTTATCCCGACGTGCTAG,-0.23 z-score
TTAGGTTTCCTATTGCTTTAGTGCTAG,1.43 z-score
GACGGTCTCCTTTTCCTCACGTGCTAG,0.588 z-score
